Measured values collected from several papers.
Compare with care: the assays were run in different laboratories. ± marks the error that the study gave.

SMILES	test	system	setting	scale	inhibition [%]
CN(C)c1ncnc2c1ncn2[C@@H]1O[C@H](CCl)[C@@H](NC(=O)[C@H](CSC(c2ccccc2)c2ccccc2)NC(=O)OC(C)(C)C)[C@H]1O	protein synthesis, refers to: GFP	human cell-free translation	25 µM		3
COc1cc(C(=O)NS(=O)(=O)c2ccccc2C)ccc1Cc1cn(C)c2ccc(NC(=O)OC3CCCC3)cc12	P-selectin exposure, flow cytometry, refers to: P-selectin	human platelet-rich plasma	30 µM, with: CRP 5 µg/mL		17
O=C1Nc2ccccc2C1=Cc1ccccn1	platelet aggregation, inhibitor	platelet-rich plasma	100 µM, with: ADP 5 µM		75.6
O=C1O[C@H]([C@@H](O)CO)C(O)=C1O	hydroxyl radical scavenging		160 µM		59.6
NCC(=O)Nc1cncc(-c2nn3c(=O)cc(N4CCNCC4)nc3s2)c1	ADP-induced platelet aggregation, light transmission aggregometry	human, stable CAD on aspirin, ex vivo platelets	subcutaneous, 0.05 mg/kg, 60 min post-dose, median value, with: ADP 20 µM		46.2
CC[C@@H]1[C@H](F)C(=O)N[C@@H]1COc1nccc2cc(C(N)=O)c(OC)cc12	ATP-site probe binding, ActivX profiling, refers to: PCTAIRE2, PCTAIRE3	THP-1 cell lysate	0.2 mM, Lys1 site		0.425
CN[C@@H]1COc2c(S(=O)(=O)NC(=O)Nc3c4c(cc5c3CCC5)CCC4)cnn2C1	refers to: IL-18	human participants, whole blood ex vivo	1800 mg single dose, 24 h, IL-18, circulating, adjusted for, with: LPS/ATP	relative to: baseline	102
CSCCNc1nc(SCCC(F)(F)F)nc2c1ncn2[C@@H]1O[C@H](COP(=O)(O)OP(=O)(O)C(Cl)(Cl)P(=O)(O)O)[C@@H](O)[C@H]1O	platelet aggregation, light transmission aggregometry	human patients, platelet-rich plasma	dose not given, 3 h, with: TRAP 5 µM		28.9 ± 32.6
